Measurements of several laboratories.
Lines come from different studies, so protocols differ.
Sequence of UniProt Q9H2X6 (whole entry, looked up): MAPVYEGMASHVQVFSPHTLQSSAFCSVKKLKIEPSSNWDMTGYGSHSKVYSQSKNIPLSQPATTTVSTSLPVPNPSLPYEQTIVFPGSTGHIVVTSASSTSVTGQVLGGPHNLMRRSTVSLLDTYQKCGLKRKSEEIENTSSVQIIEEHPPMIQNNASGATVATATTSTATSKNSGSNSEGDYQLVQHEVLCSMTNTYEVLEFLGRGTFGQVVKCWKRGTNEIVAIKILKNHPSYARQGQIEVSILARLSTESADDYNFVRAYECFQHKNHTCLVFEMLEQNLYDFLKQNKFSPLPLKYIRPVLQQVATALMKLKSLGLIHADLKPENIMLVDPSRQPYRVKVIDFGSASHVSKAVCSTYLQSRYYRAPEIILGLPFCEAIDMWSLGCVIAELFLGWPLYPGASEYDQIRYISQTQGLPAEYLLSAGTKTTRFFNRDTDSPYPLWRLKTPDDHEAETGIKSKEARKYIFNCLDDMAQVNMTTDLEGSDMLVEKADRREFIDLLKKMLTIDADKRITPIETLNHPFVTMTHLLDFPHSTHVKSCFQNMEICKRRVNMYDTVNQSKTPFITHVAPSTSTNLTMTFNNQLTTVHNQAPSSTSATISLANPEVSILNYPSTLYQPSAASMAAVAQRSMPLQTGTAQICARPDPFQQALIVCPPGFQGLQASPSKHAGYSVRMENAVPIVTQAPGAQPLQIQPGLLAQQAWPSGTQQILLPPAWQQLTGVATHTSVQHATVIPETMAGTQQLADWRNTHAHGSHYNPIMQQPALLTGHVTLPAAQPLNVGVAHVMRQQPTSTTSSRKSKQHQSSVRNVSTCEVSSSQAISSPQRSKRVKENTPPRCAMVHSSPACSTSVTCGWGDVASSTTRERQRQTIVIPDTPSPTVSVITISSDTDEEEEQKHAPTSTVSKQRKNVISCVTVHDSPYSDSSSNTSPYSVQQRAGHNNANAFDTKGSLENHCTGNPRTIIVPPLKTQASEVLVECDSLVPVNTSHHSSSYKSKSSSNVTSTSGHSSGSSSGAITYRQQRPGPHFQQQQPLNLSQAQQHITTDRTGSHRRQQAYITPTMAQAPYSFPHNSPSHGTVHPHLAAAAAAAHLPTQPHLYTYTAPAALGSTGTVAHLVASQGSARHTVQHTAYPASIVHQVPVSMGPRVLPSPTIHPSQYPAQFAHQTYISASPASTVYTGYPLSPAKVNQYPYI
Sequence of UniProt Q9Y616 (whole entry, looked up): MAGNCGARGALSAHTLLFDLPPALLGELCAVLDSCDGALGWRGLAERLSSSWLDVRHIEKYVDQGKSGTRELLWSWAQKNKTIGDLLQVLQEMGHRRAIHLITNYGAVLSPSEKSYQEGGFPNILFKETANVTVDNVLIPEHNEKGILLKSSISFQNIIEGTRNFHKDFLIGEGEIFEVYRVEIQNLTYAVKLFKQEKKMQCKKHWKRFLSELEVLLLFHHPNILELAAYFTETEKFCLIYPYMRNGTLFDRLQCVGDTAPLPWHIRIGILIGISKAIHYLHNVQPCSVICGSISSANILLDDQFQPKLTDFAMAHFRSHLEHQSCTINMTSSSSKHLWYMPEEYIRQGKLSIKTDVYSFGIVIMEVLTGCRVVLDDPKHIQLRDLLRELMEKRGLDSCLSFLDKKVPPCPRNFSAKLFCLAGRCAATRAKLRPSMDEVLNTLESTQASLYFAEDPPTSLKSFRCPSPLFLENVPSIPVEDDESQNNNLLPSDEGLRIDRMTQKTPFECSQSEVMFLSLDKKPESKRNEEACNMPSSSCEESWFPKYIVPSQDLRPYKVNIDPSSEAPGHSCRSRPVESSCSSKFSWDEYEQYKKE
Sequence of UniProt Q62868 (whole entry, looked up): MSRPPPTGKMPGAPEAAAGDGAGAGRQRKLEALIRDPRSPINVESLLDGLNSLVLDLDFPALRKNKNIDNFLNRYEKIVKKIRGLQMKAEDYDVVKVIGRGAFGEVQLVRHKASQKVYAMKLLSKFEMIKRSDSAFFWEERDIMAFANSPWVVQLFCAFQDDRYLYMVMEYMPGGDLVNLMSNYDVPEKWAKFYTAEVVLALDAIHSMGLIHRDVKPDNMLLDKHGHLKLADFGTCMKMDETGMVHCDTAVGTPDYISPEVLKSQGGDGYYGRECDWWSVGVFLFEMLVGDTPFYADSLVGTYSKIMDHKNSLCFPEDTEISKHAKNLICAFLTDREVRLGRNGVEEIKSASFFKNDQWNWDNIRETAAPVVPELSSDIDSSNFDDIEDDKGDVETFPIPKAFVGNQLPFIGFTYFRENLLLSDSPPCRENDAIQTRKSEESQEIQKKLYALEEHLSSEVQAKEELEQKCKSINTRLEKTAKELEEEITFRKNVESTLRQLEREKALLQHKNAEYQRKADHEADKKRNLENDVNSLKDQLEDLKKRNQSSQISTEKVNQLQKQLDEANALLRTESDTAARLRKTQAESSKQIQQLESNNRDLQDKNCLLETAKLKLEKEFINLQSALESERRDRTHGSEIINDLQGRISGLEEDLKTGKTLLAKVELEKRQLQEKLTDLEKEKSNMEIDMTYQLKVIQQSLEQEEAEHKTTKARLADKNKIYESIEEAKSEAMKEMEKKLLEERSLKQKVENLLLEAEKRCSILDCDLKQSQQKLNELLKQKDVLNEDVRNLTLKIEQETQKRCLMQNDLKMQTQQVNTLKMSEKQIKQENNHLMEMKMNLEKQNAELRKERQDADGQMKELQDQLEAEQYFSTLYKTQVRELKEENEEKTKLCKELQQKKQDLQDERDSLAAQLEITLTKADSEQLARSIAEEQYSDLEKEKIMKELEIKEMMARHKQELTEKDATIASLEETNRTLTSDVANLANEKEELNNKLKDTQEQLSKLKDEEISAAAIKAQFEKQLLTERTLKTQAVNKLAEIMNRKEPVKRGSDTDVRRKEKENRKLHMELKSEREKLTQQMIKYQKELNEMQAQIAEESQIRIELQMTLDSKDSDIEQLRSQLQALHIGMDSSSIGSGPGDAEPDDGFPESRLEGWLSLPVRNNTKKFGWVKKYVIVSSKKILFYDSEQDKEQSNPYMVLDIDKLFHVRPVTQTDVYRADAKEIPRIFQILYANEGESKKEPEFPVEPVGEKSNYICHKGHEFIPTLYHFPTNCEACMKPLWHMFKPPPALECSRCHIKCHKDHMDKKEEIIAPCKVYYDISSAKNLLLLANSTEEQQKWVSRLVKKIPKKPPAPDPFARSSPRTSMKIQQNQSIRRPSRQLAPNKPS
Sequence of UniProt P49286 (whole entry, looked up): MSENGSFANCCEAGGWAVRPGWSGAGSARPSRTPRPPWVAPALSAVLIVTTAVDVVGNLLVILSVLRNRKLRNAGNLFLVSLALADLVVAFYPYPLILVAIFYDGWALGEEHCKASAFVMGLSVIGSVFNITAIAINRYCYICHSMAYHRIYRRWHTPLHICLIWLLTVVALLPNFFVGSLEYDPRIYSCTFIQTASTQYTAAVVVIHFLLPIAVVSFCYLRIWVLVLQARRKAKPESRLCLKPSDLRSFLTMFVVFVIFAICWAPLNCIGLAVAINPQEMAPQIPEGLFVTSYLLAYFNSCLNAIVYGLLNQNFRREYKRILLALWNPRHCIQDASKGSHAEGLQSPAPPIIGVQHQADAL
Sequence of UniProt Q9UBS0 (whole entry, looked up): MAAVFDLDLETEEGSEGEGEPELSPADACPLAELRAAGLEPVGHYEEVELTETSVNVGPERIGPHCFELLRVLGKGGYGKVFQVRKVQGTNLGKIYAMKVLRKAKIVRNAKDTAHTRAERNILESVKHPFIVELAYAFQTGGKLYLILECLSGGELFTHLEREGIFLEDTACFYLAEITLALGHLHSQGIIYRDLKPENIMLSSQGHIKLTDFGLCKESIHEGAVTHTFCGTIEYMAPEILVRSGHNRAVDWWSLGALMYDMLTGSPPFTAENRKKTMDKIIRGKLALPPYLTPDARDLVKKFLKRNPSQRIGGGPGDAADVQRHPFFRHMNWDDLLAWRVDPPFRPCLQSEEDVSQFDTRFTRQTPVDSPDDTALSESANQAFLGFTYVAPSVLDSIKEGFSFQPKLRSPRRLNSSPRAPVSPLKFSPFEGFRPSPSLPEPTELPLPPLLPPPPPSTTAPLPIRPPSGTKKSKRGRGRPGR
Sequence of UniProt P27448 (whole entry, looked up): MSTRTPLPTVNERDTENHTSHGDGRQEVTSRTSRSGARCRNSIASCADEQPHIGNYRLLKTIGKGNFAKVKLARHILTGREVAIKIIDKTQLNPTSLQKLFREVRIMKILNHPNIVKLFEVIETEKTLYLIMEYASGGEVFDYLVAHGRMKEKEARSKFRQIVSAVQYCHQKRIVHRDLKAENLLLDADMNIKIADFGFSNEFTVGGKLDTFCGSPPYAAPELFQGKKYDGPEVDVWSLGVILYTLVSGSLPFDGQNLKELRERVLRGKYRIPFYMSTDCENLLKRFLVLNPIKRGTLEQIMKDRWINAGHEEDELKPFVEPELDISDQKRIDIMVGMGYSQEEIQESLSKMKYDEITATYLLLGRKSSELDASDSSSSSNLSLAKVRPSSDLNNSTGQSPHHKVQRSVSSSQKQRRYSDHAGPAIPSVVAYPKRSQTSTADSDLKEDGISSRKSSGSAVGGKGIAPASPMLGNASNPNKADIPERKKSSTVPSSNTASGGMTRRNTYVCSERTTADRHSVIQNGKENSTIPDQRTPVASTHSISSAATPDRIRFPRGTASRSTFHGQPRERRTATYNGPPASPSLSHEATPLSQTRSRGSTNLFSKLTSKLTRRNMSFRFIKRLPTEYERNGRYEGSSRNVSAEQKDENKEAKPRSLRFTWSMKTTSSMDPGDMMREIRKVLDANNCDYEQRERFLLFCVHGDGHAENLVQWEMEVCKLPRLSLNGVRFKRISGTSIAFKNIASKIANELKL
Sequence of UniProt Q00535 (whole entry, looked up): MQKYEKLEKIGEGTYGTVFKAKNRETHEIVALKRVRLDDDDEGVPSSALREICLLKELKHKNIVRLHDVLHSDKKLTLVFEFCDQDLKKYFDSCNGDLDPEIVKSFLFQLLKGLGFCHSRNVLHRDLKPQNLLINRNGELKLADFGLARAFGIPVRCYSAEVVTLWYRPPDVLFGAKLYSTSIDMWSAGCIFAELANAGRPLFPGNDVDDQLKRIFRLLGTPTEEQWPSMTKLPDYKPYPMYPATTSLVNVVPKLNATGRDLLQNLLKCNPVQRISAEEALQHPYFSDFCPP

CNc1ncc2c(/C=C/C(=O)N3CCC(OC)CC3)nn(Cc3cccc(C(F)(F)F)c3)c2n1
remaining activity (RPS6KB2 (Homo sapiens, UniProt Q9UBS0); enzyme activity, inhibitor, radiometric; 1 µM): 95%

CC[C@H](C)[C@H](NC(=O)[C@H](CCC(N)=O)NC(=O)[C@@H](NC(=O)[C@H](CCSC)NC(=O)[C@H](CCCCN)NC(=O)[C@H](CO)NC(=O)[C@@H](NC(=O)[C@H](CCSC)NC(=O)[C@H](CC(C)C)NC(=O)[C@H](CC(N)=O)NC(=O)[C@@H](NC(=O)[C@@H](NC(=O)[C@H](CO)NC(=O)[C@H](CC(C)C)NC(=O)[C@H](C)NC(=O)[C@H](CCCNC(=N)N)NC(=O)[C@H](CCC(=O)O)NC(=O)[C@H](Cc1ccc(O)cc1)NC(=O)[C@H](Cc1ccccc1)NC(=O)[C@H](C)NC(=O)[C@H](CC(N)=O)NC(=O)[C@@H](N)CCCCN)[C@@H](C)CC)[C@@H](C)CC)[C@@H](C)O)C(C)C)C(=O)N[C@@H](CC(N)=O)C(=O)N[C@H](C(=O)O)C(C)C
inhibition (Cyclin-dependent kinase 5, with p35 (CDK5, Homo sapiens, UniProt Q00535); enzyme activity, inhibitor, radiometric; 250 µM): 73%

O=C(NCCc1cccc2ccccc12)C1CCC1
Emax (MTNR1B (Homo sapiens, UniProt P49286); β-arrestin recruitment, agonist; MT2; 90 min): 20%

CCCCC(=O)Nc1ccc(-c2ccc3ncn(CCC)c(=O)c3c2)cn1
remaining binding (INSRR (Homo sapiens, UniProt P14616); binding, competition with immobilised ligand; 0.5 µM): 90%

Cc1cc([C@@H](C)Nc2ccccc2C(=O)O)c2nc(N3CCC(F)(F)CC3)c(C#N)c(=O)n2c1
remaining binding (MARK3 (Homo sapiens, UniProt P27448); binding, competition with immobilised ligand; 10 µM): 100%

Cc1cccc(N(O)N=Nc2ccc(S(=O)(=O)Nc3nccs3)cc2)c1
inhibition (DPPH scavenging, absorbance; 20 µg/mL): 19.9%

C1=C/COCc2cc(ccc2OCCN2CCCC2)Nc2nccc(n2)-c2cccc(c2)COC/1
remaining binding (HIPK2 (Homo sapiens, UniProt Q9H2X6); binding; 0.1 µM): 2.2%

FC(F)(F)Oc1cccc(-c2cnc3ccc(-c4ccncc4)nn23)c1
activity vs control (Rock2 (Rattus norvegicus, UniProt Q62868); enzyme activity, inhibitor, radiometric; 5 µM): 91%

Nc1ncnc2occ(-c3ccc(NC(=O)Nc4cc(C(F)(F)F)ccc4F)cc3)c12
remaining signal (IRAK3 (Homo sapiens, UniProt Q9Y616); cell-free assay, inhibitor; 20 µM): 35%

COc1cc(-c2cncc3c2CN(C)Cc2cc(N4CCNCC4)ccc2-3)cc(OC)c1OC
remaining activity (NIM1K (Homo sapiens, UniProt Q8IY84); enzyme activity, inhibitor; 1 µM): 108%

Cc1cccc(N(O)N=Nc2ccc(S(=O)(=O)Nc3onc(C)c3C)cc2)c1
inhibition (DPPH scavenging, absorbance; 20 µg/mL): 14.6%

C=CC(=O)N1CCC(COCC(=O)N2CCN(c3nc(-c4cnc(N)nc4C(F)F)nc(N4CCOC[C@@H]4C)n3)CC2)CC1
remaining binding (PDPK1 (Homo sapiens, UniProt O15530); binding, competition with immobilised ligand; 1 µM): 100%

A few entries again:
COc1cc(-c2cncc3c2CN(C)Cc2cc(N4CCNCC4)ccc2-3)cc(OC)c1OC
remaining activity (NIM1K (Homo sapiens, UniProt Q8IY84); enzyme activity, inhibitor; 1 µM): 108%
